Published values pooled from the literature.
Compare with care: the assays were run in different laboratories.
rep nsp14: Replicase polyprotein 1ab, nsp14 (rep, Severe acute respiratory syndrome coronavirus 2, UniProt P0DTD1)
UniProt P11388, sequence (whole entry, looked up): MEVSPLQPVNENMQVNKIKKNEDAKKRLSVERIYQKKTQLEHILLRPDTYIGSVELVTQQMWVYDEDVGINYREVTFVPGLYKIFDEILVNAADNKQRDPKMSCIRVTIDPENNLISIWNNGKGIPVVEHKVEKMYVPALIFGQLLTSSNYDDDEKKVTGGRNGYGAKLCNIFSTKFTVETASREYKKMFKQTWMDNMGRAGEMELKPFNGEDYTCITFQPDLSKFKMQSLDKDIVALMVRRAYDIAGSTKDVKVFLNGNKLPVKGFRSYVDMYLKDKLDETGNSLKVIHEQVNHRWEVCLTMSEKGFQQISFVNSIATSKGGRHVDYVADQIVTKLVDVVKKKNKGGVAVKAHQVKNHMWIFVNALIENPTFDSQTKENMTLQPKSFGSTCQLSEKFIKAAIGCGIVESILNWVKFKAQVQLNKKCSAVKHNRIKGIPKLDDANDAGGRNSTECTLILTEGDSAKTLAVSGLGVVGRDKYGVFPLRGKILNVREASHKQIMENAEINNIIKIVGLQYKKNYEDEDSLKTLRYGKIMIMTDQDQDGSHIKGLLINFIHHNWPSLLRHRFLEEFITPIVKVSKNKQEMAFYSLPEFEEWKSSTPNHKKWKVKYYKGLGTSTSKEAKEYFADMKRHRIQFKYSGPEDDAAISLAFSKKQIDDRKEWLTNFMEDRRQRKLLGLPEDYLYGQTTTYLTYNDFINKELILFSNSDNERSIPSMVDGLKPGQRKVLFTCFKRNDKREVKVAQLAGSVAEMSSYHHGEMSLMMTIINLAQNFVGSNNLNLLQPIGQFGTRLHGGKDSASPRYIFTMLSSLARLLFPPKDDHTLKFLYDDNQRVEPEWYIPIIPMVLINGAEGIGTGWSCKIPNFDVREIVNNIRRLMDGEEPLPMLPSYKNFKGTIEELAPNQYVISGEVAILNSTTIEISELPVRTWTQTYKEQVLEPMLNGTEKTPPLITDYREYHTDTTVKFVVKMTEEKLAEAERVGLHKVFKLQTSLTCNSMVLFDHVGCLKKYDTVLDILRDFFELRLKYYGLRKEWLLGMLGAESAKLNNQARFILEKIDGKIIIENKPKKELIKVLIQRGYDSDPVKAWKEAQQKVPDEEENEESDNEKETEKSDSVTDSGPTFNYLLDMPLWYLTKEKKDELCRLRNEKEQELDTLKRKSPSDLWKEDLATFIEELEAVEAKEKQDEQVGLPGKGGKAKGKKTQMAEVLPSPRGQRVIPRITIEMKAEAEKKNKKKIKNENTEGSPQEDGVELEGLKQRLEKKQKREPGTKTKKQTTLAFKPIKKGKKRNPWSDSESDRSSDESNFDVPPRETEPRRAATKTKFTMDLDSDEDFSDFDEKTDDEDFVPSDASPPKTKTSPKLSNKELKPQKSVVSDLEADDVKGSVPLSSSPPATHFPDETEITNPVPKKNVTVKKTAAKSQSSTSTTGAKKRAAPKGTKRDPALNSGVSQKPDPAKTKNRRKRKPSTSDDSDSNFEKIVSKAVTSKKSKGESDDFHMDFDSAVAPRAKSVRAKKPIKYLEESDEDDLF

COC(=O)Nc1c(N)nc(-c2nn(Cc3ccccc3F)c3ncc(F)cc23)nc1N — result for “AUC(0-24) at steady state”: 6770 ng·h/mL (healthy male humans, plasma; oral, 10 mg once daily, phase I DDI study, with: sildenafil 100 mg).
The IC50 of COc1ccccc1CNC(=O)c1cc(S(=O)(=O)N2CCCC(C)C2)c(C)n1C (centres unmarked) is reported as 1000 nM (rep nsp14; inhibitor).
For CC1COc2ccccc2N1C(=O)C(Cl)Cl (centres unmarked), the intrinsic clearance was 900 µL/min/mg (carboxylesterase; substrate depletion; rhesus monkey, male, liver microsomes; 5 µM, pH 7.4, without NADPH).
For N#CCC1CCN(c2nc(Nc3ccc(N4CCC(O)CC4)cc3)c3c(=O)[nH]ncc3n2)CC1, “osteopontin level difference” read -1.38 (vs placebo, Olink multiplex; human, serum; 40 mg, day 15, unit not given; relative to: placebo).
Cc1c(S(=O)(=O)N2CCn3cncc3C2)cc(C(=O)NCc2c(F)ccnc2N2CCCC2)n1C has an IC50 of 0.23 nM (rep nsp14; inhibitor).
COc1cc([C@@H]2c3cc4c(cc3[C@@H](O[C@@H]3O[C@@H]5CO[C@@H](C)O[C@H]5[C@H](O)[C@H]3O)[C@H]3COC(=O)[C@H]23)OCO4)cc(OC)c1O gave an inhibition of 91.2% (DNA topoisomerase 2-alpha (TOP2A, Homo sapiens, UniProt P11388); DNA decatenation, inhibitor, gel-based decatenation; 7.8 µM).
Cc1c(S(=O)(=O)N2CCn3cccc3C2)cc(C(=O)NCc2cccnc2N2CCCC2)n1C gave an IC50 of 1.2 nM (rep nsp14; inhibitor).
Under “subjects with adverse events”, Fc1ccccc1Cc1nc(-c2nc(C(F)(F)F)n[nH]2)cn2ccnc12 is recorded as 7.7% (refers to: Myalgia; healthy humans; oral, 10 mg, fed, single dose).
